Published values from different studies.
Each numbered part is a random draw from the data of one study; scales do not carry over between parts. “And” joins repeats or separate records; there may be more than shown.
UniProt P08069, sequence (whole entry, looked up): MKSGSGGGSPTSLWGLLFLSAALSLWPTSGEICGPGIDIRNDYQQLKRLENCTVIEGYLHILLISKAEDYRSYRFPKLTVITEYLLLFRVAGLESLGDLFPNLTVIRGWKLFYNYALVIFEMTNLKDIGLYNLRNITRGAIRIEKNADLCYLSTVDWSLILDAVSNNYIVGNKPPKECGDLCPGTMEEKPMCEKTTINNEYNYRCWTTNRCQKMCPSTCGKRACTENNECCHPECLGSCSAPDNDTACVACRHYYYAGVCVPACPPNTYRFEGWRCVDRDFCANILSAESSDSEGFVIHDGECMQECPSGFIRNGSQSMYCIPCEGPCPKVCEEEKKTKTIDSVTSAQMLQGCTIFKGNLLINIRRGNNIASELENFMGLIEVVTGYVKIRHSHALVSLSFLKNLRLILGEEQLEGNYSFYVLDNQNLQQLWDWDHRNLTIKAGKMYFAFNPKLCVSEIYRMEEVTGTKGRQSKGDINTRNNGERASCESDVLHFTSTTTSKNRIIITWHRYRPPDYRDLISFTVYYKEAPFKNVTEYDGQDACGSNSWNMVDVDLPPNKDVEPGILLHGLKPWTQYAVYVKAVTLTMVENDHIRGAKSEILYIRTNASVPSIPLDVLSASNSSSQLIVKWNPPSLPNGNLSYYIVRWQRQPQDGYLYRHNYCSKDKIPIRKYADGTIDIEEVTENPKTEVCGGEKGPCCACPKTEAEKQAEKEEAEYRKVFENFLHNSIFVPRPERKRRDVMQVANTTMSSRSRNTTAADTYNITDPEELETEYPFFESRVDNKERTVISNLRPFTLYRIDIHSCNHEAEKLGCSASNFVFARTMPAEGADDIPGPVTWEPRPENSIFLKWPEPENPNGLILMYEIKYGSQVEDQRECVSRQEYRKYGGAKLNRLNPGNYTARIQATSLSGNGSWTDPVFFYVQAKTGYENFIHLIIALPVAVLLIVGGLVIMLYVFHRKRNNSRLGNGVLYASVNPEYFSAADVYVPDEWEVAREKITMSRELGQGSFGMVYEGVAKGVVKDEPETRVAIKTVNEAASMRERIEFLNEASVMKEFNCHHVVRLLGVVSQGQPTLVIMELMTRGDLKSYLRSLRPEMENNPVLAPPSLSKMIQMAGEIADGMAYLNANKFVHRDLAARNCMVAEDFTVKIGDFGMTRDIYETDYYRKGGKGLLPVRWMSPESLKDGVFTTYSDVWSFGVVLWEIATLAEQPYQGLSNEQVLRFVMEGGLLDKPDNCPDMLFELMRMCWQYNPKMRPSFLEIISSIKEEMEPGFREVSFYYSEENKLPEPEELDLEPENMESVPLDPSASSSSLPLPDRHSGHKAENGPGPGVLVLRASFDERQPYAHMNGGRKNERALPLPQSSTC
UniProt Q13882, sequence (whole entry, looked up): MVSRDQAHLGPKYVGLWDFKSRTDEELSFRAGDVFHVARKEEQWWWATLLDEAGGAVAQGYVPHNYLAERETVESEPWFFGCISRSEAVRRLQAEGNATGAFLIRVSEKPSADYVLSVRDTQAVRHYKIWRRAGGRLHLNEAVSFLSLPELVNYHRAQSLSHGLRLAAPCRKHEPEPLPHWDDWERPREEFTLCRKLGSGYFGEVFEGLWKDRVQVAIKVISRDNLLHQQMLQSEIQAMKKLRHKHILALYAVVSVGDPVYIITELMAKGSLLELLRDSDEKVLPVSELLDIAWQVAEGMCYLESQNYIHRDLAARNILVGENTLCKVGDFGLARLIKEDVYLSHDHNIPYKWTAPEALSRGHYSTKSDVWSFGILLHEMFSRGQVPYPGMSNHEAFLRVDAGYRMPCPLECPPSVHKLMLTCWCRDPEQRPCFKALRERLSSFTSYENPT

Series 1 — read-out: enzyme activity; action: inhibitor; tested at: 77 µM; baseline: untreated
Target: DNA polymerase theta, ATPase domain (POLQ, Homo sapiens, UniProt O75417)
UniProt O75417, sequence (whole entry, unmodified, looked up): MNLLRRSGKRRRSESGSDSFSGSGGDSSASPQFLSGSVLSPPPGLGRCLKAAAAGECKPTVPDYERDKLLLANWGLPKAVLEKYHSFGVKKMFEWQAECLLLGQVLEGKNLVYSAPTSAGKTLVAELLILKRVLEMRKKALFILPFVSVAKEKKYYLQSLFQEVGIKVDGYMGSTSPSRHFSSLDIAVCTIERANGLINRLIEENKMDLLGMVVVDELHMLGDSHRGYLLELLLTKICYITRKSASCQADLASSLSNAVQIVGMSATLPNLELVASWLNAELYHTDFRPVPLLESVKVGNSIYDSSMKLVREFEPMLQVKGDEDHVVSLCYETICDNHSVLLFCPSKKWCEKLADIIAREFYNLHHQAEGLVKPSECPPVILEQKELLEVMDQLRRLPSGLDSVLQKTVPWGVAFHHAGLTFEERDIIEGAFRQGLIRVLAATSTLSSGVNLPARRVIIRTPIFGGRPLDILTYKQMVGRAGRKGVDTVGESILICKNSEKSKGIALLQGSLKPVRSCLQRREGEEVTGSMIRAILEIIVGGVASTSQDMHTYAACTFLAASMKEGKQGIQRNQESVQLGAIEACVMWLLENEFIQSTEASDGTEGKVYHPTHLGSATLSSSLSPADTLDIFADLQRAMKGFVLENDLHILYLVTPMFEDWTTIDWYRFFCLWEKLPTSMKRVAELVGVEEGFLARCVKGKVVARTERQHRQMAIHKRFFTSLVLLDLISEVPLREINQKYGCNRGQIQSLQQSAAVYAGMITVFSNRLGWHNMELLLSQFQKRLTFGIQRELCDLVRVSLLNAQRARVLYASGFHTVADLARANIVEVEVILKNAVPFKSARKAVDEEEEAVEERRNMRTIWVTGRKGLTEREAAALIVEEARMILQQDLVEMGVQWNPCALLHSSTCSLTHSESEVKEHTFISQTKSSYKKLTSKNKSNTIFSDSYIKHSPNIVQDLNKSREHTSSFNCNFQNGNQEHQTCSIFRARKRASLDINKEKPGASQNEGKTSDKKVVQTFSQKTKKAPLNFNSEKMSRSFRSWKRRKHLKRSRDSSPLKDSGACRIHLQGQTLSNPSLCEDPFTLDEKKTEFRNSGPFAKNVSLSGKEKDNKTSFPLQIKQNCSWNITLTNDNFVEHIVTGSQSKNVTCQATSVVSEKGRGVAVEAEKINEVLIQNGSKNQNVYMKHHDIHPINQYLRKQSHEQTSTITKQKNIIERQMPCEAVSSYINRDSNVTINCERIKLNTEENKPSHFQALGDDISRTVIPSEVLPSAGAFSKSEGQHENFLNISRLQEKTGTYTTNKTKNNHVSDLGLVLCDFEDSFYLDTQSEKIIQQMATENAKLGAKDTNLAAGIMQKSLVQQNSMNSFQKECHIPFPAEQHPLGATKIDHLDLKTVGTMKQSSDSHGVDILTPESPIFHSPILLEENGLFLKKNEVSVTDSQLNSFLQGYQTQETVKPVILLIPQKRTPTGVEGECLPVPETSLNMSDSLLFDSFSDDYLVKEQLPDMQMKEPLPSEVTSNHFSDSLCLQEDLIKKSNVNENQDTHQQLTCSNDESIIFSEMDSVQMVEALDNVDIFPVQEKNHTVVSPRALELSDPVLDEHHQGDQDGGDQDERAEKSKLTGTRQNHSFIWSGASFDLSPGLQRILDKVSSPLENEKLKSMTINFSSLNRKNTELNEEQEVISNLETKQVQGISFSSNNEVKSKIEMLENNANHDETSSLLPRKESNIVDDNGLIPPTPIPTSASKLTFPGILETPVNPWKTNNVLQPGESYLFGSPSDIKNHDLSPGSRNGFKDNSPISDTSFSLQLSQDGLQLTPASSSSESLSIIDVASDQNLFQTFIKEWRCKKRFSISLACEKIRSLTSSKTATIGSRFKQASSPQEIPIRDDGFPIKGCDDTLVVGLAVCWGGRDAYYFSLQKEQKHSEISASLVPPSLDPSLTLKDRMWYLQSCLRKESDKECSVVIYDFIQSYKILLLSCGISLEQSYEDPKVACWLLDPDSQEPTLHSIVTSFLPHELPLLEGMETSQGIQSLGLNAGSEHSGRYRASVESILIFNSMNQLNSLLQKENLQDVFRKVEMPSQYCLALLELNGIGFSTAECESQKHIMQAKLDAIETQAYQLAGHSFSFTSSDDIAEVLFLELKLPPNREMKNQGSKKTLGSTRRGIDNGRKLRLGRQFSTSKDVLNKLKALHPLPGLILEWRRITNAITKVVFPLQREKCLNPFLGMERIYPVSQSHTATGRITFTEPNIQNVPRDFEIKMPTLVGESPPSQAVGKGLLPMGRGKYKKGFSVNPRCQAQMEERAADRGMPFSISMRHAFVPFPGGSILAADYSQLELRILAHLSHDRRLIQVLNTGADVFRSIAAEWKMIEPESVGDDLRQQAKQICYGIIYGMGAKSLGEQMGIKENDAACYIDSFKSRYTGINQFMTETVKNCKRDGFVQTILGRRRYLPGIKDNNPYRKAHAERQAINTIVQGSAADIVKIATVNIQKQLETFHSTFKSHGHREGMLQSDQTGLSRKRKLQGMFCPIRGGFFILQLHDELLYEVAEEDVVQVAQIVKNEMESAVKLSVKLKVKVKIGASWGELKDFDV
Structure (SMILES) | remaining activity
CC(=O)[C@]1(O)Cc2c(O)c3c(c(O)c2[C@@H](O[C@H]2C[C@H](N)[C@H](O)[C@H](C)O2)C1)C(=O)c1ccccc1C3=O | 65% and 63.5%
C[C@H](CCC(=O)O)[C@H]1CC[C@H]2[C@@H]3C[C@H](O)[C@@H]4C[C@H](O)CC[C@]4(C)[C@H]3CC[C@]12C | 91.6%
Nc1ncnc2c1c(-c1cccc(OCc3ccccc3)c1)cn2C1CC(CN2CCCC2)C1 (stereo in doubt) | 98.8%
Cc1ccnc2c1NC(=O)c1cccnc1N2C1CC1 | 97.2%
CCN(CC)Cc1ccc2cc(COC(=O)Nc3ccc(C(=O)NO)cc3)ccc2c1 | 101%
CCCCCCCCc1ccc(CCC(N)(CO)CO)cc1 | 110%

Series 2 — Structure (SMILES): CCC(=N\O)/C(C)=C/c1ccc(F)cc1; tested at: 1 µM
target | assay | conditions | scale | remaining binding [%]
Ephrin type-B receptor 2 (EPHB2, Homo sapiens, UniProt P29323) | cell-free assay, competition with immobilised ligand |  |  | 76
Tyrosine-protein kinase Tec (TEC, Homo sapiens, UniProt P42680) | cell-free assay, competition with immobilised ligand |  |  | 89
Ankyrin repeat and protein kinase domain-containing protein 1 (ANKK1, Homo sapiens, UniProt Q8NFD2) | cell-free assay, competition with immobilised ligand |  |  | 79
Tyrosine-protein kinase ABL1, non-phosphorylated (ABL1, Homo sapiens, UniProt P00519, T315I) | cell-free assay, competition with immobilised ligand |  |  | 75
Phosphatidylinositol 4-kinase beta (PI4KB, Homo sapiens, UniProt Q9UBF8) | cell-free assay, competition with immobilised ligand |  |  | 50
Receptor-interacting serine/threonine-protein kinase 2 (RIPK2, Homo sapiens, UniProt O43353) | cell-free assay, competition with immobilised ligand |  |  | 91
Tyrosine-protein kinase SYK (SYK, Homo sapiens, UniProt P43405) | cell-free assay, competition with immobilised ligand |  |  | 100
Receptor-type tyrosine-protein kinase FLT3 (FLT3, Homo sapiens, UniProt P36888, D835Y) | cell-free assay, competition with immobilised ligand |  |  | 91
Epidermal growth factor receptor (EGFR, Homo sapiens, UniProt P00533, del747-752/P753S) | cell-free assay, competition with immobilised ligand |  |  | 67
Tyrosine-protein kinase ABL1, non-phosphorylated (ABL1, Homo sapiens, UniProt P00519, F317I) | cell-free assay, competition with immobilised ligand |  |  | 100
Ephrin type-A receptor 1 (EPHA1, Homo sapiens, UniProt P21709) | cell-free assay, competition with immobilised ligand |  |  | 82
Serine/threonine-protein kinase RIO3 (RIOK3, Homo sapiens, UniProt O14730) | cell-free assay, competition with immobilised ligand |  |  | 78
Insulin-like growth factor 1 receptor (IGF1R, Homo sapiens, UniProt P08069) | cell-free assay, competition with immobilised ligand |  |  | 79
Receptor-type tyrosine-protein kinase FLT3 (FLT3, Homo sapiens, UniProt P36888, R834Q) | cell-free assay, competition with immobilised ligand |  |  | 80
Death-associated protein kinase 3 (DAPK3, Homo sapiens, UniProt O43293) | cell-free assay, competition with immobilised ligand |  |  | 87
Death-associated protein kinase 2 (DAPK2, Homo sapiens, UniProt Q9UIK4) | cell-free assay, competition with immobilised ligand |  |  | 97
Tyrosine-protein kinase ABL1, phosphorylated (ABL1, Homo sapiens, UniProt P00519, Y253F) | cell-free assay, competition with immobilised ligand |  |  | 80
Serine/threonine-protein kinase PAK 1 (PAK1, Homo sapiens, UniProt Q13153) | cell-free assay, competition with immobilised ligand |  |  | 88
Activin receptor type-2A (ACVR2A, Homo sapiens, UniProt P27037) | cell-free assay, competition with immobilised ligand |  |  | 100
Mitogen-activated protein kinase kinase kinase 5 (MAP3K5, Homo sapiens, UniProt Q99683) | cell-free assay, competition with immobilised ligand |  |  | 93
Mitotic checkpoint serine/threonine-protein kinase BUB1 (BUB1, Homo sapiens, UniProt O43683) | cell-free assay, competition with immobilised ligand |  |  | 88
Mitogen-activated protein kinase kinase kinase 7 (MAP3K7, Homo sapiens, UniProt O43318) | cell-free assay, competition with immobilised ligand |  |  | 81
Serine/threonine-protein kinase 35 (STK35, Homo sapiens, UniProt Q8TDR2) | cell-free assay, competition with immobilised ligand |  |  | 100
Serine/threonine-protein kinase 17B (STK17B, Homo sapiens, UniProt O94768) | cell-free assay, competition with immobilised ligand |  |  | 74
Tyrosine-protein kinase ABL1 (ABL1, Homo sapiens, UniProt P00519, F317I) | KINOMEscan | F317I mutant, phosphorylated | baseline: control | 77

Series 3 — species: mouse; matrix: microsomes or S9; tested at: 2 µM; time: 0.5 h
SMILES | remaining compound [%]
COc1ccc(N2C(=O)CC(NNC(=O)c3cc(C(F)(F)F)n[nH]3)C2=O)cc1 (centres unmarked) | 35.7
CCCc1ncc(C(O)c2ccc(OCC)cc2)n1C (centres unmarked) | 0.0193
Cn1c(C(F)(F)F)nn(CCNS(=O)(=O)CCN2C(=O)CCCC2=O)c1=O | 67.2
CCC(C)Nc1c(C(C)=O)c(=O)[nH]c2c(C(=O)OC)scc12 (centres unmarked) | 3.07
CC(=O)c1c(C)cn(CC(O)CN2CCNCC2)c1C (centres unmarked) | > 99.9
COc1cc2c(cc1NC(=O)C(C(C)=O)=C(SC)SC)oc1ccccc12 | 6.57
O=C1CC(c2ccc3c(c2)OCO3)c2c(n[nH]c2-c2ccccc2)N1 (centres unmarked) | 47.2

Series 4 — read-out: enzyme activity; action: inhibitor; tested at: 10 µM
Target: Calcium/calmodulin-dependent protein kinase type II subunit alpha (CAMK2A, Homo sapiens, UniProt Q9UQM7)
UniProt Q9UQM7, sequence (whole entry, looked up): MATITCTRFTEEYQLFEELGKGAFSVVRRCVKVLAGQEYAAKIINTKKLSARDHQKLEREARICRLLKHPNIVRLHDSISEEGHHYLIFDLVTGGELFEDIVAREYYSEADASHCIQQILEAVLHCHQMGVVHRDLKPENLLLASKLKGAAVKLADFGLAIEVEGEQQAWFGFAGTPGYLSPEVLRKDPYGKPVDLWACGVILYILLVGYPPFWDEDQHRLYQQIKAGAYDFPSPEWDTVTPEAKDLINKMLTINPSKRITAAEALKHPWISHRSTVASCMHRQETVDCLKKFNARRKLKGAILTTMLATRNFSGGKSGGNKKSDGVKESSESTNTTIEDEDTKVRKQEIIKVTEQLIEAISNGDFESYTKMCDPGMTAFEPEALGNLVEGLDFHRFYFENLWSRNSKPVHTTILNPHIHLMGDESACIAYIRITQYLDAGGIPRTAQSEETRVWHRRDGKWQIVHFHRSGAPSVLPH
SMILES | inhibition [%]
COc1cc(OC)c2c(=O)cc(-c3ccc(O)c(O)c3)oc2c1 | -39
CC(=O)O[C@]1(C(C)=O)CC[C@H]2[C@@H]3CCC4=CC(=O)CCC4=C3[C@@H](c3ccc(N(C)C)cc3)C[C@@]21C | -14
Nc1nc(=S)c2[nH]cnc2[nH]1 | -3
O=C(/C=C/c1ccc(O)c(O)c1)O[C@H]1[C@H](O)C[C@](O)(C(=O)O)C[C@H]1O | 10
COc1ccc(CCO[C@@H]2O[C@H](CO[C@@H]3OC[C@H](O)[C@H](O)[C@H]3O)[C@@H](OC(=O)/C=C/c3ccc(O)c(OC)c3)[C@H](O[C@@H]3O[C@@H](C)[C@H](O)[C@@H](O)[C@H]3O)[C@H]2O)cc1O | -69

Series 5 — read-out: enzyme activity; action: inhibitor; tested at: 1 µM
SMILES: CO[C@@H]1[C@H](N(C)C(=O)c2ccccc2)C[C@H]2O[C@]1(C)n1c3ccccc3c3c4c(c5c6ccccc6n2c5c31)C(=O)NC4
target | inhibition [%]
BMP-2-inducible protein kinase (BMP2K, Homo sapiens, UniProt Q9NSY1) | 100
Atypical kinase COQ8A, mitochondrial (COQ8A, Homo sapiens, UniProt Q8NI60) | 0
Mast/stem cell growth factor receptor Kit (KIT, Homo sapiens, UniProt P10721, A829P) | 90
Serine/threonine-protein kinase D1 (PRKD1, Homo sapiens, UniProt Q15139) | 0
Protein-tyrosine kinase 6 (PTK6, Homo sapiens, UniProt Q13882) | 0
Insulin-like growth factor 1 receptor (IGF1R, Homo sapiens, UniProt P08069) | 0
Mitogen-activated protein kinase kinase kinase 11 (MAP3K11, Homo sapiens, UniProt Q16584) | 94

Some of these lines once more (series 4):
SMILES | inhibition [%]
COc1cc(OC)c2c(=O)cc(-c3ccc(O)c(O)c3)oc2c1 | -39
CC(=O)O[C@]1(C(C)=O)CC[C@H]2[C@@H]3CCC4=CC(=O)CCC4=C3[C@@H](c3ccc(N(C)C)cc3)C[C@@]21C | -14
Nc1nc(=S)c2[nH]cnc2[nH]1 | -3
O=C(/C=C/c1ccc(O)c(O)c1)O[C@H]1[C@H](O)C[C@](O)(C(=O)O)C[C@H]1O | 10
